Published values pooled from the literature.
Each numbered part is a random draw from the data of one study; scales do not carry over between parts. Several values in a cell are separate wells, animals, samples, runs or records. Numbers after ± are the reported error.

Study 1
Target: Sodium-dependent neutral amino acid transporter B(0)AT1 (SLC6A19, Homo sapiens, UniProt Q695T7)
Sequence of UniProt Q695T7 (whole entry, looked up): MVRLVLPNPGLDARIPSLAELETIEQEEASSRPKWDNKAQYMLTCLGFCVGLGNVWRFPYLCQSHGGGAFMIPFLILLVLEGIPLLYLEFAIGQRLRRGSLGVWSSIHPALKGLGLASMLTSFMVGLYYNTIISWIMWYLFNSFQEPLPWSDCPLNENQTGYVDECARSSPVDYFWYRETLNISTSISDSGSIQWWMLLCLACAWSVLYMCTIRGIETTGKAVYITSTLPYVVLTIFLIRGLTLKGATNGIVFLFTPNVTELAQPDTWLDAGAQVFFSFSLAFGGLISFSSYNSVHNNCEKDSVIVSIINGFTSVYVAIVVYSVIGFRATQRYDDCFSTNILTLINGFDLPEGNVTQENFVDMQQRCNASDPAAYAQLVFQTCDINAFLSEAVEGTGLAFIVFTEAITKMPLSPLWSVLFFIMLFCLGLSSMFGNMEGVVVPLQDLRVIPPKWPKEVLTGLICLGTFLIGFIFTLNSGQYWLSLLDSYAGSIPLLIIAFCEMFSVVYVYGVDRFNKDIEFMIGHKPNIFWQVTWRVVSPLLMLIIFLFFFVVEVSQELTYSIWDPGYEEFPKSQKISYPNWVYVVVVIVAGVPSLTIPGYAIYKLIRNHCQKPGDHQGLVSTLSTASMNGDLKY
Action: inhibitor
Method: FLIPR membrane potential
Cell line: CHO-BC
Endpoint: IC50
Structure (SMILES) = CC(C)NC(=O)COc1ccc(Br)cc1; value = 9.6 ± 1.29 µM
Structure (SMILES) = Cc1cc(NCC(=O)NC(C)C)cc(C)c1I; value = 0.445 ± 0.0907 µM
Structure (SMILES) = Cc1cc(OCC(=O)NC(C)C)ccc1I; value = 0.685 ± 0.039 µM
Structure (SMILES) = CC(C)NC(=O)COc1ccc(Cl)cc1; value = 38.2 ± 33.7 µM
Structure (SMILES) = CC(C)NC(=O)COc1cccc2ccccc12; value = 6.31 ± 1.59 µM
Structure (SMILES) = CNC(=O)COc1cc(C)c(Cl)c(C)c1; value = 15.6 ± 10.5 µM
Structure (SMILES) = Cc1cc(OCC(=O)NC(C)C)ccc1Cl; value = 2.07 ± 0.263 µM
Structure (SMILES) = CCNC(=O)COc1cc(C)c(Cl)c(C)c1; value = 3.03 ± 0.342 µM

Study 2
Compound: CCN1/C(=C/C=C2\CCCC(/C=C/C3=[N+](CC)c4ccccc4C3(C)C)=C2NCCCCCCCCN2CCC(Nc3nc4ccccc4n3Cc3ccc(F)cc3)CC2)C(C)(C)c2ccccc21
Cell line: U-87 MG
Concentration: concentration not given
Baseline: DMSO
Endpoint: log2 fold change
test = measured: ESM1 mRNA; value = 3.86
test = measured: FANCD2 mRNA; value = -1.76
test = measured: RAMP1 mRNA; value = -2.95
test = measured: CLINT1 mRNA; value = 0.807
test = measured: SEMA3C mRNA; value = -1.68
test = measured: HECW1 mRNA; value = 0.98
test = measured: HJURP mRNA; value = -2.06
test = measured: RPS6KA1 mRNA; value = -0.824

Other studies, line by line
SMILES = Cn1cc(-c2cccc(CN3CCC4(CC3)COc3c4ccc4c3CN([C@H]3CCC(=O)NC3=O)C4=O)c2)cn1; system = Crbn I391V mouse, MC-38 tumour; setting = oral, daily, 30 mg/kg, day 15, anti-PD1 combination study; endpoint = body weight change; value = 2.4% and -4.4% and 6.5% and 0%
SMILES = C#CCN1C(=O)C(O)(C(=O)O)Oc2cc(F)ccc21 (stereo not shown); tested on = Arabidopsis thaliana; system = Col-0; setting = 50 µg/mL, seed germination; endpoint = root length; value = 0.154 cm
SMILES = CC(C)NC(=O)N1CCC(NC2=Nc3cc(F)ccc3N(CC(F)F)c3ccc(Cl)cc32)C1 (stereo in doubt); tested on = sample I colorectal tumour organoid; setting = 0.1 µM; how to read = baseline: DMSO; endpoint = viability; value = 109%

A few entries again (study 2):
test = measured: CLINT1 mRNA; value = 0.807
test = measured: RAMP1 mRNA; value = -2.95
